# Published values pooled from the literature.
# Lines come from different studies, so protocols differ. ± marks the error that the study gave.
Compound,tested on,test,test system,setting,scale,measurement,result
O=[N+]([O-])c1nccn1CC(O)CNCCBr (stereo not drawn),A549,"cell viability, SRB",,"anoxic 4 h, then oxic 120 h",,IC50,38.8 ± 6.8 µM
CN1CCN(C2(CNC3CCN(c4cccc(-c5cc6cc(F)ccc6[nH]5)c4)CC3)CCC2)CC1,A549,,,,,GI50,1850 nM
COc1c(CCC[P+](c2ccccc2)(c2ccccc2)c2ccccc2)cc2c(c1OC)OCO2.[I-],A549,NCI60 SRB,,,,TGI,-4.42 log M
ClCc1ccnc(-c2cc(CCl)ccn2)c1.F[P-](F)(F)(F)(F)F.[Ir+3].[c-]1ccccc1-c1ccccn1.[c-]1ccccc1-c1ccccn1,A549,"microarray, refers to: COX3 (probe 238199_x_at)",,"3 µM, 24 h",relative to: untreated,mRNA fold change,0.0642
N.N.[Cl][Pt][Cl],A549,"cell growth, MTT",,"48 h, LED light photolysis 1 h",,IC50,15.8 ± 4.8 µM
Nc1ncc(-c2nc(N3CCOCC3)nc(N3CCOCC3)n2)c(C(F)F)n1,A549,,,72 h,,GI50,102 nM
COc1cc(CCC[P+](c2ccccc2)(c2ccccc2)c2ccccc2)c(OC)c2c1OCO2.[I-],A549,NCI60 SRB,,,,TGI,-4.16 log M
C#Cc1cccc(Nc2ncnc3cc(OCCOC)c(OCCOC)cc23)c1,A549,MTT,,,,sublethal dose,2 µM
COC(=O)C1CCN(C(=O)c2ccc(N(C)Cc3cnc4nc(N)nc(N)c4n3)cc2)CC1,A549,CellTiter-Glo,,10 µM,"100 none, 0 cytostatic, -100 cytotoxic",cell growth,161 ± 3.62%
COc1c(C)c2c(c(O)c1C/C=C(\C)CCC(=O)O)C(=O)OC2,A549,cell proliferation,lung cancer,,,IC50,0.562 µM
CCn1c(=O)c(-c2cc[nH]n2)cc2c(C)nc(N)nc21,human coronavirus OC43,virus-induced cell killing,MRC-5,screen,,maximum inhibition,10.4%
O=C(CCc1ccc(O)cc1)c1c(O)cc(O)cc1O,A549,fluorescence imaging,,"30 µM, with: 50 µM 2-NBDG, 15 min",relative to: DMSO,2-NBDG uptake,67%
CC(C)N1CCC(NC2CCN(c3cccc(-c4cc5cc(F)ccc5[nH]4)c3)CC2)CC1,A549,,,,,TGI,3.52 µM
CCN(CC)c1ccc(C=NNC(=O)CSc2nc3ccccc3c(=O)n2Cc2ccc(S(N)(=O)=O)cc2)c(O)c1,A549,NCI five-dose screen,,,,CC50,> 100 µM
CC(C)C[C@H](NP(=O)([O-])O[C@@H]1O[C@@H](C)[C@H](O)[C@@H](O)[C@H]1O)C(=O)N[C@@H](Cc1c[nH]c2ccccc12)C(=O)[O-].[Na+].[Na+],human coronavirus OC43,virus-induced cell killing,MRC-5,screen,,maximum inhibition,1.59%

# For quick reference, copied from above:
Compound,tested on,test,test system,setting,scale,measurement,result
COc1c(C)c2c(c(O)c1C/C=C(\C)CCC(=O)O)C(=O)OC2,A549,cell proliferation,lung cancer,,,IC50,0.562 µM
CCn1c(=O)c(-c2cc[nH]n2)cc2c(C)nc(N)nc21,human coronavirus OC43,virus-induced cell killing,MRC-5,screen,,maximum inhibition,10.4%
